# Measured values collected from several papers.
# A part holds a random share of what one study measured.

# Study 1
# Target: Histone acetyltransferase KAT6A, winged helix 2, GST fusion (KAT6A, Homo sapiens, UniProt Q92794, residues 85-181)
# Method: protein binding microarray
# Form: double-stranded DNA, one strand shown
# Sample: in vitro
# Tested at: not given
# Notes: 8-mer, flanks averaged, mean of 2 arrays, mostly near background
# Reference: not given
# Direction: higher = stronger binding
# Residues (chain): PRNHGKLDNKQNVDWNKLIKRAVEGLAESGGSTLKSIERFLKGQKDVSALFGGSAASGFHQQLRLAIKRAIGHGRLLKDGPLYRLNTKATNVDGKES
Sequence,E-score
CAGTGGTC,-0.0667
ATCGAGAA,-0.000945
ACGCTCTG,-0.00524
ACTCACTC,0.136
CCTCCTAG,-0.0493
AATCCCCA,-0.126
AATACGAA,0.0515
CACACAAA,0.221
AATTAATG,0.0748
GATGCAGA,0.0633
AATCGAGT,-0.168
GCTTACGA,-0.0613
CGTACACA,0.0232
GCCAGATA,0.0141
CTATGGAA,-0.0678
ATACGACA,-0.0396
CTAAACAC,0.00303
CACTGATG,-0.0454
AATGTGTC,-0.199
CAATAGCA,-0.174
AGCACGGG,0.0563
AGAACTCT,0.0268

# Study 2
# Target: RNA binding protein fox-1 homolog 2, RRM domain, GST-SBP tag (RBFOX2, Homo sapiens, UniProt O43251-10, residues 100-194)
# Method: RNA Bind-n-Seq
# Form: RNA
# Sample: in vitro
# Tested at: 365 nM
# Notes: natural RNA segment, single round, ends assumed
# Reference: no-protein control
# Direction: higher = stronger binding
# Constant ends, left off below: GGGAGUUCUACAGUCCGACGAUC … UGGAAUUCUCGGGUGCCAA
# Construct (chain): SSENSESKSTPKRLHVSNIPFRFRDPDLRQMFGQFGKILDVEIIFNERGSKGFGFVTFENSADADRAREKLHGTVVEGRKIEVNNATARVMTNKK
Sequence,RBNS enrichment (R)
AGUUAAUCAACAAGUAUUUAUUAUGUGCUGAUAUCUUUGUUUUAGAUGCUUUAAAGGAGACAGGAAUAUAAUUAUUGAGUAUAGAAGCAUCAGAAACUAUUAAAAUUAAG,0.689
ACCUUCUUAGCCUCCUUCCUUCCUUCCACACGGCCCAGAGGCCAGCUCGGCCCCACCCAGAGGGCCUGGCCAGCUGCUCCCAAGCCACCCAGGGAGGCAGCAGACAGGUG,0.438
GCCCACACUUACACCUCAGAAACUUAGCAUGCAUCCUGAAAUGAAGCCUUUCAUAGACUCAUAGGGAAUAAAGCCAAAUGUAGCUCUUACUCUUUAUAAAAUAAAGUGUU,3.45
GGUCUGAGGAUGCAUUCGAGAUGGCAGAUUCCCACUGCCGCUGCCCGCUCAGCCCAGCUGUUGGGAACAGCAUGGAGGCAGAUGUGGGGCUGAGCUGGGGAAUCAGGGUA,8.99
UUAGUAUGGCAAAUCAUAUUUUACUUUUACUUAAGCAUUUGUAAUUUGGAGUAUCUGGUACUAGCUAAGAAAUAAUUCUAUAAUUGAGUUUUGUACUCACCAUAUAUGGA,0.333
UUAAAGGGAAUGACUUUGAAGUAAAACCUUUUUUCUUGCUACUGAAAAAAAUGGAGUUGUUUUGGGUGGUAAAGUGUUAAGGAAUAGGGACAGCUGGUCACACAAGGAAC,1.61
UAAUACUAGCUUUGAUACAUAAUCAUUUAAGUUAUAUUUGUUUAAAAUUAUAUAUUUUCUUAGUAAUAGUCAAGUUGGUGCUUAGGAAUAAACAUGUAGAAGUUUAUGCA,7.44
CAGCUCAUCUUAAUAUUUUCCAUUUUUAUUAGAGGAAGUAGGACAGAGUUGUGUUUUUCUUUAUAAACAAAUGAUAAACUAGCUUUUUUAAAAAGUGACUGUUAGAACUU,0.339
CGUCCAGGUGACUGACUGGUUGCUCCUCCCCCUUGGCAUGUUUGCAGAUCCUCUCCUCAGUCCGUGAAUCAGCACAGCUUGGAUUGAGCUUUACAACUAACAGCGCGCUA,0.339
AGUGGGUAGAGCGUCUGCCAGACUCCUGGCCUGGUGUGCCUGGGUAGAAUUACACGAUAAGCAAUGGUCAGACUUUCCUUCUGUGGAUCCUUAUGCCAAUUCAGCUACUA,0.405
AAUGAAAUAGUAGUUAAGAGGUGUUUUCCCACUGUGUUUAAAGAGAACACUAGUAAUUCUGGUUUUUCUUUCUAACUGCUUUACUGUUUCAAGGGUAUUCUUUUAAAACU,0.279
GUGUGUGUCCUGCCUGUAUAUGUGGCUUCCUCUGAUGCUGACAAGGUGGGGAACAAUCCUUGCCAGAGUGGGCUGGGACCAGACUUUGUUCUCUUCCUCACCUGAAAUUA,0.678

# Study 3
# Target: Ras GTPase-activating protein-binding protein 1, full length (G3BP1, Homo sapiens, UniProt Q13283)
# Sequence of UniProt Q13283 (whole entry, looked up): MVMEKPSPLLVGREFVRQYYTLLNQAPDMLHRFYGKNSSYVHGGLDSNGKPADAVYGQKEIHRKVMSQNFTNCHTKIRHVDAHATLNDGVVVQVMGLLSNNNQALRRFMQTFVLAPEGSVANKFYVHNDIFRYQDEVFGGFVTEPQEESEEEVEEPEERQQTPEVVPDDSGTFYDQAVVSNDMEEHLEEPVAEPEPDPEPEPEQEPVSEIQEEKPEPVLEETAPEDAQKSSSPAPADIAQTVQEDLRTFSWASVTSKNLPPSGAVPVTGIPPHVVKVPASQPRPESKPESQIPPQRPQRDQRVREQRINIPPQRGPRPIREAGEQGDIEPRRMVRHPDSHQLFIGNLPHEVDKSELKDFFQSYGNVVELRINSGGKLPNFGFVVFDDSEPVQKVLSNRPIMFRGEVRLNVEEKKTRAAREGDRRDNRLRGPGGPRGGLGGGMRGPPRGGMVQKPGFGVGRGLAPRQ
# Method: RNA Bind-n-Seq
# Form: RNA
# Sample: in vitro
# Tested at: 200 nM
# Notes: whole 134-nt RNA, ends assumed
# With: 150 mM LiCl
# Reference: input library
# Direction: higher = stronger binding
# Each molecule: 7-deaza-guanosine replaces G
# Constant ends, left off below: GGGAGUUCUACAGUCCGACGAUC … UGGAAUUCUCGGGUGUCAAGG
Sequence,log2 enrichment
AGUCCUGUGCUACACAUCGUAUGUACCGAAUCGGUUUUUGGGGUUUUUGGUUUUUGGAAAGUAUUAUGUUACGCCGUUCGGAUCUGCACU,-1.02
GUCCUGUGCUACACAUCGUAUGUACCGAAUCAAAUUUAAAUUUUUUUAAACCCCCAAAAAAGUAUUAUGUUACGCCGUUCGGAUCUGCAC,-0.146
UGGCCCUGGUGGCAUGCGGGGAGGAAGAGGUGGCCUCAUGGAUCGUGGUGGUCCCUGUGGAAUGUUCAGAGGUGGCCGUGGUGGAGACAG,0.653
UAACUUUAGAGGAGGAUCUGAUGGAUAUGGCAGUGGACGUGGAUUCGGGGAUGGCUAUAAUGGGUAUGGAGGAGGACCUGGAGGUGGCAA,-0.526
GCAGGAAGUAAAAACAAAUGGAAAUGCUUCGGAUAGAGGCAGGGGUGGGGGUUGCUAAGGAAAGGGUGGGAUGGGAGUGGGUAAAGAGUU,0.271
CUCAAGUCCUGUGCUACACAUCGUAUGUACCGAAUCGGGGAAGGAAGGGGAAGGAAAGUAUUAUGUUACGCCGUUCGGAUCUGCACUUCC,-0.563
UCCUGUGCUACACAUCGUAUGUACCGAAUCGGGUUUUUUUGGGAAAGGGAAAAAAAGGGAAAGUAUUAUGUUACGCCGUUCGGAUCUGCA,-0.45
CUCAAGUCCUGUGCUACACAUCGUAUGUACCGAAUCGGUUUGGUUUGGUUUGGAAAGUAUUAUGUUACGCCGUUCGGAUCUGCACUUCCA,0.209
GUCCUGUGCUACACAUCGUAUGUACCGAAUCGGGGAAAGGGGAAAGGGGUUUUUGGGGAAAGUAUUAUGUUACGCCGUUCGGAUCUGCAC,0.351
ACCAUGCAGGUGGGCAUCUUUGGGAAGUGGGGCAAGGGGGGGAUAGGGAGGCGGGUAACACUUUGGGAACAGGUGGUCCCAGGUCGUUUC,0.223
UGCUCUCCGUGCCACAUGCGCCCGCAGGUUACGCCAAGGAGGCCCUGAAUCUGGCGCAGAUGCAGGAGCAGACGCUGCAGUUGGAGCAAC,-2.86

# Study 4
# Target: Sal-like protein 4, full length isoform B (SALL4, Homo sapiens, UniProt Q9UJQ4-2, residues 1-616)
# Method: universal PBM
# Form: double-stranded DNA, one strand shown
# Sample: in vitro
# Tested at: not given
# Notes: 8-mer, flanks averaged, mean of replicates
# Direction: higher = stronger binding
Sequence,E-score
TTGTTAAA,0.269
TACCTTAA,0.103
AGACTAGG,-0.0462
CCGCAGCG,-0.273
TGGGCACA,-0.055
AGCTAACA,-0.0056
AAAATCCC,0.0877
ATCGCCTC,0.109
CCGACTCG,-0.179
CTGCCCAG,-0.332
CTGGACGA,-0.133
CTCAATAC,0.175
CACCCCTC,-0.278
AGCTGCGC,-0.264
AGTAAGTA,0.259
AATCTGTA,0.204
CAGGGTGC,-0.345
AAGGCGCT,-0.14
CCGTACGG,-0.137
CTGTTAGA,-0.0678
AGCCAAAA,0.198
CAGAGAGC,-0.237
GGATGTTA,0.0211
CTACAGAC,-0.0354
AACAATAA,0.403

# Study 5
# Target: RING finger protein unkempt homolog, zinc fingers 1-6, GST-SBP tag (UNK, Homo sapiens, UniProt Q9C0B0, residues 30-357)
# Sequence of UniProt Q9C0B0 (30-357, looked up): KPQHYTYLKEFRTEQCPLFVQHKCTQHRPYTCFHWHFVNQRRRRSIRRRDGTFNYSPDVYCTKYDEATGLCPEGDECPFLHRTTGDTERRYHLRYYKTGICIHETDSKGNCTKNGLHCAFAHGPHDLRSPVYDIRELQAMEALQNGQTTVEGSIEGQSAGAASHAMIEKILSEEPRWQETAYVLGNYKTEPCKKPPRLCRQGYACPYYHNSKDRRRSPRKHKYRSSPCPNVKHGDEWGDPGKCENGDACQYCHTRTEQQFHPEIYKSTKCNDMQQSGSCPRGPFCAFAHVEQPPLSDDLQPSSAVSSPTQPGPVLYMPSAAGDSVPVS
# Method: RNA Bind-n-Seq
# Form: RNA
# Sample: in vitro
# Tested at: not given
# Notes: RNA with constant flanks, human-mouse chimeric sites, ends assumed
# Reference: input RNA pool
# Direction: higher = stronger binding
# Constant ends, left off below: GGGAGUUCUACAGUCCGACGAUC … CAACAGAGGAUUGAGCAUCA
Sequence,bound/input enrichment
AGAAUCUUGGGACUGUUUUACUUAAUUGGUCAUUGAUAUCUCAACAAACAUGGAGAUAAGAUUAGAAAUCUUGACAUCAACAGGUAUUAAGCAGAAAAAACCCUGGCCACGUGUCUCCUG,0.151 ratio
CACGUGUCUGCAGUACUUGAUGUGGACUACUCUCCCACUGGGAAGGAAUUUGUGUCUGCCAGCUUUGAUAAGUCUAUUCGAAUCUUUCCUGUGGACAAGAGCCGAAGCAGGGAAGUGUAU,0.254 ratio
GGGGAGAAACCUUAUGAGUGUGUGCAGUGUGGGAAAUCCUACAGUCAGAGCUCAAACCUCUUCAGACAUCAGAGACGACACAAUGCAGAAAAACUUUUGAAUGUUGUGAAAGUUUAAGAA,0.207 ratio
CUGGCACUCUAUCAGAUAUAUUAAUUUUUUAAUGUAGAUGUAAUUUUAAAAAUGAAUGGCUACUUUACGUGAUAGAUUAGGGUUUUACUAUAUAUGUGUACAUAUGUAUAUGUAUUUAUA,5.78 ratio
UGUAACUUAUCUGUAAAAAAGGUUUCUCCCCUACUGUAAAAAAAUAUGCAUGUAUAGUAAUUAGGACUUCAUUCCUCCAUGUUUUCUUCCCUUAUCUUACUGUCAUUGUCCUUAAACCUU,2.06 ratio
UUGCUACUGACUCCCUGGGUCAAGUUCCUGUGGGAAUCAUACAGGCAGUGUUUGGACCUUCUUAGAAACAAUUCUAGAGUAGAGCGCCUUUACCAUGAUAUUGCCCAACAAGCUUUCAAA,0.191 ratio
GGCCUGGACCUUCCUGGGGCUAGUACAAAUAGCGGCAGUGGAGGCUCGAGAGGAAAGUUUGUUAGUGGAGGCAGUGGUAGAGGCCGUCAUGUACGGUCUUUACACGAAUAGAUGUGUUCU,0.327 ratio
UGUGCCCCACAAGAUCCUACCUGAGUGGCAGCUGAAGUUGACUCCCUCUCCUUGCCUGAACCCCCCCCCACUGCCCCCCCAUCCCCCAGUGUCGGCUAUUCUCUGGUCUCUGCACGGUUC,0.44 ratio
UUGAAAACUGAUUCAAGUAAGUUUGAGUAUCACAAUGUUAGCUUUCUAAUUCCAUAAAAGUACUUGGUUUUUACAGUAACCCCACAUACAUCACCCCAGCGCCAUUUGUAAAGAGCAACU,0.837 ratio
AGAGAUAAGACAUCCAGGAACAUGCGAGGGUCACGGAUGAAUGGACUGCCUAGCCCCACUCACAGCGCCCACUGUAGCUUCUACCGAACCAGAACCUUGCAGGCACUGAGUAAUGAGAAG,0.173 ratio
GUGACUGGUGUUAAGAUUUCCCCUCAGCAAAGAAGUGCAGUAGUCACAAUAAUCCCUUCUGUGGUGAGUGCCAGUCAGAUUGUGGAGCUGGUCCCAGACCUCAGUUUAGACAUGGGAACU,0.249 ratio
